Results of several laboratories.
Every numbered part comes from another study and shows a few of its results, in no order.
Chain of UniProt Q9H093 (whole entry, looked up): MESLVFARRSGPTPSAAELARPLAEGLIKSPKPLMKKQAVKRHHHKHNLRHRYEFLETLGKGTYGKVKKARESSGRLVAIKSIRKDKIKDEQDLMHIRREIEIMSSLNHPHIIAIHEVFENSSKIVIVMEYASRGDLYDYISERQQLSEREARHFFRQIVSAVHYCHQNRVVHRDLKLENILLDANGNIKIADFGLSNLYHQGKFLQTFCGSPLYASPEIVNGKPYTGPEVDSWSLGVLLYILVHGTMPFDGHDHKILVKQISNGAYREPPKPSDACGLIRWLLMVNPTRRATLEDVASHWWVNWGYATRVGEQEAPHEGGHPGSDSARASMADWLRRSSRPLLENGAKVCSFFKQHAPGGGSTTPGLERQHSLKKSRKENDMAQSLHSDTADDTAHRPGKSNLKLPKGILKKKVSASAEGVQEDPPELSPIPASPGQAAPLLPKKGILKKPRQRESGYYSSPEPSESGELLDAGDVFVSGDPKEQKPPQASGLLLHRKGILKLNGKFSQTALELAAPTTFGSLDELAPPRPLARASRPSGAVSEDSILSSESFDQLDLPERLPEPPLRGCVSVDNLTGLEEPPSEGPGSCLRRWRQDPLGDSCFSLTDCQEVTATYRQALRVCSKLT
Chain of UniProt Q96KB5 (whole entry, looked up): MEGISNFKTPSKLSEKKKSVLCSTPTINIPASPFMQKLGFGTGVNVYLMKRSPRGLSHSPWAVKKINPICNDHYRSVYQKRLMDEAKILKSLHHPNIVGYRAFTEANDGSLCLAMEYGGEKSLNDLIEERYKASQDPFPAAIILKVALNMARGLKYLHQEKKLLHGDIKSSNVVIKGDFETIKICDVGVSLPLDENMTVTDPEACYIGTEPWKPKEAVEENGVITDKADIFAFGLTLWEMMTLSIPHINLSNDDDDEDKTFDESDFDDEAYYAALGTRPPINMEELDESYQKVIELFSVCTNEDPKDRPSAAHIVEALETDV
Chain of UniProt P51617 (whole entry, looked up): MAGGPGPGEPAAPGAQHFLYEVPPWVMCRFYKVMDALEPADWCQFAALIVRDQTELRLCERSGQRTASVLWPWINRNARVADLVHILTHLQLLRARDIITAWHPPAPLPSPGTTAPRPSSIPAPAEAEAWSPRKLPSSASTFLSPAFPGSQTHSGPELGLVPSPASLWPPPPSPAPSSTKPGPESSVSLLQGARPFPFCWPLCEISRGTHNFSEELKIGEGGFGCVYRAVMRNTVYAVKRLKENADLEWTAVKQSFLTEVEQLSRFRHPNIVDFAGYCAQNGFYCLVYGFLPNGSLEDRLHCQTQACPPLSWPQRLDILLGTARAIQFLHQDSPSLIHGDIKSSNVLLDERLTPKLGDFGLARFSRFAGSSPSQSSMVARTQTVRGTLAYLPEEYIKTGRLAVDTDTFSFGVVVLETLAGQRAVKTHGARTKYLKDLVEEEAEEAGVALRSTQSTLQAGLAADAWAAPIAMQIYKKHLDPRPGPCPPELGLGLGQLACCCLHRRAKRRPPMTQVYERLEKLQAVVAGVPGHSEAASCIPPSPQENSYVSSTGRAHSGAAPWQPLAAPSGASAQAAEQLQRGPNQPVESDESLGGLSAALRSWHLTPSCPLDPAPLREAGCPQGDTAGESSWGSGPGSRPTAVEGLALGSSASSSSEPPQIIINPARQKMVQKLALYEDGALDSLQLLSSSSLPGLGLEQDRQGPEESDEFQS
Chain of UniProt Q13555 (whole entry, looked up): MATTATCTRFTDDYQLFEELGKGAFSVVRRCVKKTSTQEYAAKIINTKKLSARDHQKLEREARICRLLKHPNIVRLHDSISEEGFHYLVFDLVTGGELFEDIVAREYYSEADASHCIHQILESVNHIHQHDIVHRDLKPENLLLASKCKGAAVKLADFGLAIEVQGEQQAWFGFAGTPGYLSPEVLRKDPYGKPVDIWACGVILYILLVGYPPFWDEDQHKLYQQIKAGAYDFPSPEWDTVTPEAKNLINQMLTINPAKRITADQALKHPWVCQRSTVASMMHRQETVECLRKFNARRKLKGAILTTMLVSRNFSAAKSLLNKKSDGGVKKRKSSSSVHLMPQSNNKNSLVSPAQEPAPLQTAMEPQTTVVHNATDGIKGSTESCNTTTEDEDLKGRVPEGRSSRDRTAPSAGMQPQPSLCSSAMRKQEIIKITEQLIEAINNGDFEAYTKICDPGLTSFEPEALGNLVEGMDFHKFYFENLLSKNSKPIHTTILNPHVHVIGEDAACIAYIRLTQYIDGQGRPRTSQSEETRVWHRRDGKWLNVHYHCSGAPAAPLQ

Series 1
SMILES: COc1ccc2c(c1)/C(=C/c1cnc[nH]1)C(=O)N2
Observed: enzyme activity
Mode: inhibitor
Concentration: 0.5 µM
Relative to: control
The remaining activity was 124% (PBK (Homo sapiens, UniProt Q96KB5)).
IRAK1 (Homo sapiens, UniProt P51617) — remaining activity: 101%.
For NUAK2 (Homo sapiens, UniProt Q9H093): remaining activity read 116%.
CAMK2G (Homo sapiens, UniProt Q13555) — remaining activity: 94.6%.

Mixed results
CRK2: Cyclin-dependent kinase 2 homolog (CRK2, Plasmodium falciparum, UniProt P61075)
Chain of UniProt P61075 (whole entry, looked up): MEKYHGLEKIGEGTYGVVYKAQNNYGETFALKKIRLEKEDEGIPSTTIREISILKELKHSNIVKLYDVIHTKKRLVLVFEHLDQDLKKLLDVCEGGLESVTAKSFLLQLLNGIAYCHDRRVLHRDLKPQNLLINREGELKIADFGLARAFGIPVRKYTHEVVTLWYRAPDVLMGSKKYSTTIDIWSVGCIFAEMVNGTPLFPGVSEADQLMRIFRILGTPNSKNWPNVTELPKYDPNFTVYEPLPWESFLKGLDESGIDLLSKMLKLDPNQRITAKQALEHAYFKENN
With `CC1=C(C#N)[C@@H](c2ccc3[nH]nc(C)c3c2)C(C#N)=C(c2ccc(Cl)cc2)N1` the remaining binding was 92.5% (CRK2; cell-free assay, competition with immobilised ligand; 1 µM).
`C/C(NN1CCCCCC1)=C1\C(=O)N(c2ccccc2C)C(=O)N=C1O` gave a remaining compound of 17.4% (human, microsomes or S9; 2 µM, 0.5 h).
`CC(C)(O)c1cncc(-c2nc3ccc(F)cc3n2C2CC2)c1` gave a remaining binding of 100% (CRK2; cell-free assay, competition with immobilised ligand; 1 µM).
`Cc1ccc(C2CC(c3c(O)[nH]c(=O)n(C)c3=O)=NN2)s1` (stereo not shown) gave a remaining compound of 24.2% (human, microsomes or S9; 2 µM, 0.5 h).
`CCCCN(CCCC)C(=O)CN1C[C@H](c2cc(OC)c3c(c2)OCO3)[C@@H](C(=O)O)[C@@H]1CC(C)(C)CCC` gave a remaining binding of 72.2% (CRK2; cell-free assay, competition with immobilised ligand; 1 µM).
For `O=C1CCC(N2Cc3c(ccc4c3OCC43CCN(Cc4ccccc4)CC3)C2=O)C(=O)N1` (stereo not shown), the Papp A→B was 18.7 ×10⁻⁶ cm/s (Caco-2; 10 µM, 2 h).

For quick reference, copied from above (mixed results):
With `CC1=C(C#N)[C@@H](c2ccc3[nH]nc(C)c3c2)C(C#N)=C(c2ccc(Cl)cc2)N1` the remaining binding was 92.5% (CRK2; cell-free assay, competition with immobilised ligand; 1 µM).
